# Assay results pooled from the literature.
# Numbers after ± are the reported error.
# CHRM1: Muscarinic acetylcholine receptor M1 (CHRM1, Homo sapiens, UniProt P11229)
# UniProt P11229, sequence (whole entry, looked up): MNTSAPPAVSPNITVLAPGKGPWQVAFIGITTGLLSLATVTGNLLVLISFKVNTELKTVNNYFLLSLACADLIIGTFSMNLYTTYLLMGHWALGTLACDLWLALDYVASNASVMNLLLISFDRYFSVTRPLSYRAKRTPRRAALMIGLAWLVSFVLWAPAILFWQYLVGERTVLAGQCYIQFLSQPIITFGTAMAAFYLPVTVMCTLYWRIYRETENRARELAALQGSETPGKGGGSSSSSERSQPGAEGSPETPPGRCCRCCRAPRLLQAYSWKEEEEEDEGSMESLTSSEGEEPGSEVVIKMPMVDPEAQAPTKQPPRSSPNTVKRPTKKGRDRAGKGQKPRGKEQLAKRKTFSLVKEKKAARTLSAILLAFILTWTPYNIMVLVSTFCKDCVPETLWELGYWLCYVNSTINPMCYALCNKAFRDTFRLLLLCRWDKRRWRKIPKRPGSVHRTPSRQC
# T1: DNA hairpin, hairpin; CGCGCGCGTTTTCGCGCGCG
# T2: ssRNA, CUG repeat (Homo sapiens); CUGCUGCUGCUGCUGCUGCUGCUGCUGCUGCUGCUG
# UniProt Q9Y5Y9, sequence (whole entry, looked up): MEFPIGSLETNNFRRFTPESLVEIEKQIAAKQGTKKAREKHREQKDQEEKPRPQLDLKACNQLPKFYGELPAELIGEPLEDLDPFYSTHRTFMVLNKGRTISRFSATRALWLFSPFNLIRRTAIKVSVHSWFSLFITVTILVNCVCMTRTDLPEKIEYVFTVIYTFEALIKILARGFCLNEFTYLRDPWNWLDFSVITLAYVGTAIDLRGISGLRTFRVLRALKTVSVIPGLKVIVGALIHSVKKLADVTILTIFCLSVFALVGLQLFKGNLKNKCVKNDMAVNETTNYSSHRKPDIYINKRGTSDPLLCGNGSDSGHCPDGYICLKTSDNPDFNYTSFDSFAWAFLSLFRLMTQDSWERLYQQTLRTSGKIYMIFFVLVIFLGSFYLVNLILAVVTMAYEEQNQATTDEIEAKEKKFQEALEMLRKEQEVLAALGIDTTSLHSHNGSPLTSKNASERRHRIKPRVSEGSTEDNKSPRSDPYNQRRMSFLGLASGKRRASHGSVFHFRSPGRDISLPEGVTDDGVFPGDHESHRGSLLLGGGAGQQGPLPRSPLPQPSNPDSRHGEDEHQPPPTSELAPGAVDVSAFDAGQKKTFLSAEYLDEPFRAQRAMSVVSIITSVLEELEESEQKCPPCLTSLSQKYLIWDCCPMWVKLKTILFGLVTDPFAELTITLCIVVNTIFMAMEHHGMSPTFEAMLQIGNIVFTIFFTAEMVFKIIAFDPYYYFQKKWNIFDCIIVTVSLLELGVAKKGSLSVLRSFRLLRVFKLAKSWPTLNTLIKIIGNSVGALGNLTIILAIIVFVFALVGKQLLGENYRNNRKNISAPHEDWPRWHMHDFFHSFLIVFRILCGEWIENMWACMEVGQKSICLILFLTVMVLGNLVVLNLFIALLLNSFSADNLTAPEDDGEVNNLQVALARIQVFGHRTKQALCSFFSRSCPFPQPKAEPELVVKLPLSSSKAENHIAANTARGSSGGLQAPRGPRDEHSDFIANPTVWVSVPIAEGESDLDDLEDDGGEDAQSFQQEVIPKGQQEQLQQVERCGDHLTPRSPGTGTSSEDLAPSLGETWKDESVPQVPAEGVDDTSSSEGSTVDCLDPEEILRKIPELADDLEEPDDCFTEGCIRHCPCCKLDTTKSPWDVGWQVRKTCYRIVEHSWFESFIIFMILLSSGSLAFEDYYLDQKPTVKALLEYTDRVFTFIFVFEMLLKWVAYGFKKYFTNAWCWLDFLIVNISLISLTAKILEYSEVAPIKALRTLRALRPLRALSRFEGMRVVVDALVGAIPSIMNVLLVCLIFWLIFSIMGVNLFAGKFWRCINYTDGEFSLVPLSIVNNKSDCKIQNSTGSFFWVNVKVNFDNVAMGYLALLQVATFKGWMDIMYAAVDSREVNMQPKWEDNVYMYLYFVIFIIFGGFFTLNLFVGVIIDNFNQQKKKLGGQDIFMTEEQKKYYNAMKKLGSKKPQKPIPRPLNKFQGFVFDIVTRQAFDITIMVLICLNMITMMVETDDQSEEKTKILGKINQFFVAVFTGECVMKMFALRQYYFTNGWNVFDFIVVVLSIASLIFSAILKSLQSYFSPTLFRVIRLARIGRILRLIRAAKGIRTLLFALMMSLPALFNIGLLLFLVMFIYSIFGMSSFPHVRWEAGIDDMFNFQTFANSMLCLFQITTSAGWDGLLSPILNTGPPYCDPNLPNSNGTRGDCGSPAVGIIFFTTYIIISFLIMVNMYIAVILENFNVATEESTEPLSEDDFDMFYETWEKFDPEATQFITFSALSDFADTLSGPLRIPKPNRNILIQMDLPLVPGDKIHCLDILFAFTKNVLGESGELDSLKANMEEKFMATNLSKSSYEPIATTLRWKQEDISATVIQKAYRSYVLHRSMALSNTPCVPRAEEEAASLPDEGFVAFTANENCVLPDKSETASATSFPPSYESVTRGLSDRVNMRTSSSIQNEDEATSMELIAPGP
# UniProt Q13126, sequence (whole entry, looked up): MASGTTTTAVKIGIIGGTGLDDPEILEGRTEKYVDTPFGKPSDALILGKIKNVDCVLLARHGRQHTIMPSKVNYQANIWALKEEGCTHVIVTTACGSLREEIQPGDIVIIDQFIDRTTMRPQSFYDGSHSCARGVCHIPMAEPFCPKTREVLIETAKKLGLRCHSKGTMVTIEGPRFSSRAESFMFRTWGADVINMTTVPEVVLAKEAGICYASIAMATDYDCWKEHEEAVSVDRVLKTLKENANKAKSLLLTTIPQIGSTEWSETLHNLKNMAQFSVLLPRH
# UniProt P08173, sequence (whole entry, looked up): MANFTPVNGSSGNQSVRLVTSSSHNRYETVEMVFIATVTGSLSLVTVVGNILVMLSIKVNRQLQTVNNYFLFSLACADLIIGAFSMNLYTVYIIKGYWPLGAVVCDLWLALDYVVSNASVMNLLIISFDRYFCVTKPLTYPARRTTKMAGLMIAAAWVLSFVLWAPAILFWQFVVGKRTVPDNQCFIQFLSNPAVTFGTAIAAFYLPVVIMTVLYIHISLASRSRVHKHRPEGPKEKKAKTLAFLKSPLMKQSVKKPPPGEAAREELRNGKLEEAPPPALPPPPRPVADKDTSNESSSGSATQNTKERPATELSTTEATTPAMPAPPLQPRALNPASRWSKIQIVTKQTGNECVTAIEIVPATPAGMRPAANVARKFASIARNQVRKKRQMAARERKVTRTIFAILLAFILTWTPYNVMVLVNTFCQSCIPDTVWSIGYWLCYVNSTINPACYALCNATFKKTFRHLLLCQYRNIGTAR
# UniProt Q92731, sequence (whole entry, looked up): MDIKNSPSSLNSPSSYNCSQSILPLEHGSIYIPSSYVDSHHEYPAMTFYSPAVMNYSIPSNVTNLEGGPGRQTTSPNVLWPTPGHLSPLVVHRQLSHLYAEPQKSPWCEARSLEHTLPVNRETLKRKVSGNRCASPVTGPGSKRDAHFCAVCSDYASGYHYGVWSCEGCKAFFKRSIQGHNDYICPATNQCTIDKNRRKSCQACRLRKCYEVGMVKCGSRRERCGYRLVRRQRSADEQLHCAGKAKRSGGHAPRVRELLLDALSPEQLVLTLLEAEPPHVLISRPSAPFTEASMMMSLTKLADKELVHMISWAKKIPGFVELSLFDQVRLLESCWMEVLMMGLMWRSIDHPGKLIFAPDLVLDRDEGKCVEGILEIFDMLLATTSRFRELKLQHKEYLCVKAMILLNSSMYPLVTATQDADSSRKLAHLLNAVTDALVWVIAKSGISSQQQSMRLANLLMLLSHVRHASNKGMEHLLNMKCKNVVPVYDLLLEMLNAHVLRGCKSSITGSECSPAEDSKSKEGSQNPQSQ
# UniProt P12369, sequence (whole entry, unmodified, looked up): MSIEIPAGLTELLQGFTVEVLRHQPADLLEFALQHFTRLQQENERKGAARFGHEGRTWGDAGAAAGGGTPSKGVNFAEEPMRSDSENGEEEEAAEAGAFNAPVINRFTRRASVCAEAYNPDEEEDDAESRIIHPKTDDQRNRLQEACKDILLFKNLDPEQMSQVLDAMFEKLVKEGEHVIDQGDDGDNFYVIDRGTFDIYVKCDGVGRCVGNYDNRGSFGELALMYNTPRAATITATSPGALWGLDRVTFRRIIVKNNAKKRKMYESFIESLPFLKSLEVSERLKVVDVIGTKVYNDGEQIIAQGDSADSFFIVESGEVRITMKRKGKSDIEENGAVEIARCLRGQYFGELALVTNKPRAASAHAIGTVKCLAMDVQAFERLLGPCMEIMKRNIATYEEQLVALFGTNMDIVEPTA
# UniProt P22309, sequence (whole entry, looked up): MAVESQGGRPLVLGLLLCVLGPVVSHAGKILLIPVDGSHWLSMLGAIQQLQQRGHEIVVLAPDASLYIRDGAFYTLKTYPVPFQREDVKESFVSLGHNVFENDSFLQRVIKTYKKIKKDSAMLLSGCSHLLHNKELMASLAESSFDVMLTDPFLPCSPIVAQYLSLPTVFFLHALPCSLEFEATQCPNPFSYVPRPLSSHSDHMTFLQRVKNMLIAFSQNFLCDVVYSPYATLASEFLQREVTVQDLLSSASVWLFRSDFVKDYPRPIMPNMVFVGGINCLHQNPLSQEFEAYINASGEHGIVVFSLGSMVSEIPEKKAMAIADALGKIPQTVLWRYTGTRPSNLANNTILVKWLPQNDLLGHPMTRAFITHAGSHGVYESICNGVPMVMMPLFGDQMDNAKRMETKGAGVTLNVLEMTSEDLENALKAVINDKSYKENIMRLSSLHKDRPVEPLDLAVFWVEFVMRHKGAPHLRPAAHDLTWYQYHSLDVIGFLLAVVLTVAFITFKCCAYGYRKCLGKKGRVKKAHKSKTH
Molecule,target,assay,test system,setting,scale,measurement,result
CNC(=O)c1ccc(COc2ccccc2-c2cc(=O)n(C3CCCCC3O)cn2)cc1 (stereo not drawn),CHRM1,"allosteric agonist, IP1 accumulation",CHO-M1 cells,"1 µM, unit not given",relative to: maximum ACh response,change in baseline activity,88.3 ± 2.9
CSC[C@H]1CN(Cc2c[nH]c3c(N)ncnc23)C[C@@H]1O,"S-methyl-5'-thioadenosine phosphorylase (MTAP, Homo sapiens, UniProt Q13126)","binding, thermodynamic cycle",,with: phosphate,,coupling free energy,-3.6 kcal/mol
O=C(Nc1nc2ccccc2s1)C1CCCCO1 (stereo not drawn),"Muscarinic acetylcholine receptor M4 (CHRM4, Homo sapiens, UniProt P08173)","calcium mobilization, positive allosteric modulator",CHO expressing hM4 and Gqi5,"concentration not given, with: acetylcholine EC20",,activity,inactive
NC(=O)NO,"nrdA/nrdB, with alpha subunit (Chlamydia trachomatis serovar D, UniProt O84834+O84835)","Mn(IV)/Fe(III) cofactor reduction, stopped-flow absorption",,"22 °C, fast phase, turnover conditions, with: CDP, ATP and DTT",,apparent second-order rate constant,8 ± 4 M⁻¹ s⁻¹
O=S(=O)(Oc1ccccc1Cl)C1CC2OC1C(c1ccc(O)cc1)=C2c1ccc(O)cc1 (stereo not drawn),"Estrogen receptor beta (ESR2, Homo sapiens, UniProt Q92731)","reporter gene, antagonist",HepG2 transfected with ERβ,"10 µM, with: E2",relative to: E2,remaining activity,86 ± 11%
COC(=O)c1scc(C)c1NC(=O)C(C)N1CCOCC1C (stereo not drawn),"Sodium channel protein type 10 subunit alpha (SCN10A, Homo sapiens, UniProt Q9Y5Y9)",cell membrane chromatography,,,higher = stronger binding,capacity factor k′,15
O=C(O)[C@H]1O[C@@H](Oc2c(-c3ccc(O)cc3)oc3cc(O)ccc3c2=O)[C@H](O)[C@@H](O)[C@@H]1O,"UDP-glucuronosyltransferase 1A1 (UGT1A1, Homo sapiens, UniProt P22309)","glucuronidation, substrate, Supersomes",,,,Vmax,3.87 ± 0.84 nmol/mg/min
N=C(N)Nc1ccc(Nc2ccc(NC(=N)N)cc2)cc1,"T1, DNA hairpin, hairpin",SPR,,"8 µM, pH 6.25, 25 °C, Na+ 100 mM, too weak to fit",,binding,binds weakly
Nc1nc2c(ncn2[C@@H]2O[C@@H]3COP(=O)(O)O[C@H]3[C@H]2O)c(=O)[nH]1,"cAMP-dependent protein kinase type II-beta regulatory subunit, holoenzyme with catalytic subunit (Prkar2b, Rattus norvegicus, UniProt P12369, S112A)","PKA holoenzyme activation, activator, fluorescence anisotropy",,,"relative to: RIIβ over RIα, higher = RIIβ-selective",selectivity ratio,3
Cc1ccc(COc2ccccc2-c2cc(=O)n(C3CCCCC3O)cn2)cc1 (stereo not drawn),CHRM1,"positive allosteric modulator, IP1 accumulation",CHO-M1 cells,"1 µM, 60 min, 37 °C, with: ACh","relative to: ACh alone, higher = stronger potentiation",ΔpEC50 of ACh,0.84 ± 0.14 log units
CC(C)C[C@H](NP(=O)(O)O[C@@H]1O[C@@H](C)[C@H](O)[C@@H](O)[C@H]1O)C(=O)N[C@@H](Cc1c[nH]c2ccccc12)C(=O)O,aminopeptidases,inhibitor,human blood,"7 to 607 µM, 30 min preincubation, 37 °C, with: THF",,THF N-terminal degradation,no effect
O=C(c1ccc(COc2ccccc2-c2cc(=O)n(C3CCCCC3O)cn2)cc1)N1CCCCC1 (stereo not drawn),CHRM1,"positive allosteric modulator, IP1 accumulation",CHO-M1 cells,"10 µM, 60 min, 37 °C, with: ACh","relative to: ACh alone, higher = stronger potentiation",ΔpEC50 of ACh,0.86 ± 0.13 log units
CIKVAVS,human polyclonal IgM rheumatoid factor,binding to mAb II-481,peptide,"combined CDR peptides, serum STR",,maximum inhibition,0%
Cn1ncc2cc(COc3ccccc3-c3cc(=O)n(C4CCCCC4O)cn3)ccc21 (stereo not drawn),CHRM1,"allosteric agonist, IP1 accumulation",CHO-M1 cells,"1 µM, unit not given",relative to: maximum ACh response,change in baseline activity,69.8 ± 2.3
Oc1nc(Nc2ccc(F)cc2)cc2ccccc12,"T2, ssRNA, CUG repeat (Homo sapiens)","competition with MBNL1, competitor, TR-FRET",,,,IC50,12 µM

# For quick reference, copied from above:
Molecule,target,assay,test system,setting,scale,measurement,result
Nc1nc2c(ncn2[C@@H]2O[C@@H]3COP(=O)(O)O[C@H]3[C@H]2O)c(=O)[nH]1,"cAMP-dependent protein kinase type II-beta regulatory subunit, holoenzyme with catalytic subunit (Prkar2b, Rattus norvegicus, UniProt P12369, S112A)","PKA holoenzyme activation, activator, fluorescence anisotropy",,,"relative to: RIIβ over RIα, higher = RIIβ-selective",selectivity ratio,3
Cc1ccc(COc2ccccc2-c2cc(=O)n(C3CCCCC3O)cn2)cc1 (stereo not drawn),CHRM1,"positive allosteric modulator, IP1 accumulation",CHO-M1 cells,"1 µM, 60 min, 37 °C, with: ACh","relative to: ACh alone, higher = stronger potentiation",ΔpEC50 of ACh,0.84 ± 0.14 log units
